Measured values gathered from unrelated publications.
A part holds a random share of what one study measured.
Chain of UniProt Q99640 (whole entry, looked up): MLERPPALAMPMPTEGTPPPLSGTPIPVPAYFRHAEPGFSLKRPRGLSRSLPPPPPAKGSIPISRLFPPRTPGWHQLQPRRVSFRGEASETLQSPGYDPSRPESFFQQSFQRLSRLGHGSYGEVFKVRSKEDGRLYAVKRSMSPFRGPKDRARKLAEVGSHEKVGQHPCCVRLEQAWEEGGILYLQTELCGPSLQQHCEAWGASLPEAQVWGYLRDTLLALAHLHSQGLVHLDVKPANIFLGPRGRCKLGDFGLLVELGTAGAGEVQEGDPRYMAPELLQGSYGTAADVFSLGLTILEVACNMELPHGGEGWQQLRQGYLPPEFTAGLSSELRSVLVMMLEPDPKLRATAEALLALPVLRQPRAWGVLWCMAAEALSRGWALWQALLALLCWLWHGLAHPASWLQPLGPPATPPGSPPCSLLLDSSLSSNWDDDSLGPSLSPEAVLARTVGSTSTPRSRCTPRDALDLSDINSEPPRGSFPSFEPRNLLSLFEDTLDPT

Sample 1 — method: protein binding microarray; form: double-stranded DNA, one strand shown; sample: in vitro; concentration: not given; reference: not given; reading: higher = stronger binding
Target: Histone acetyltransferase KAT6A, winged helix 2, GST fusion (KAT6A, Homo sapiens, UniProt Q92794, residues 85-181)
Setting: 8-mer, flanks averaged, mean of 2 arrays, mostly near background
Construct (chain): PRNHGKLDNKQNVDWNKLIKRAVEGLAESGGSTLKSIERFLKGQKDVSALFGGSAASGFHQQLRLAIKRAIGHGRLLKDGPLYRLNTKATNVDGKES
Strand	E-score
GGATCACC	-0.0646
ACATTACT	-0.118
TTATTGAA	-0.09
TAATGCGA	0.0101
CGGGAGCA	0.16
ACGAGAAC	0.0108
AAACTCGA	-0.0708
CCAACTAA	-0.0725

Sample 2 — method: RNAcompete; form: RNA; sample: in vitro; concentration: 20 nM; setting: 7-mer, probes averaged, single round; reference: mean of 7-mers; reading: higher = stronger binding
Target: PABPC1L2, full length, GST fusion (mouse, UniProt A0ABA7IW68)
Residues (chain): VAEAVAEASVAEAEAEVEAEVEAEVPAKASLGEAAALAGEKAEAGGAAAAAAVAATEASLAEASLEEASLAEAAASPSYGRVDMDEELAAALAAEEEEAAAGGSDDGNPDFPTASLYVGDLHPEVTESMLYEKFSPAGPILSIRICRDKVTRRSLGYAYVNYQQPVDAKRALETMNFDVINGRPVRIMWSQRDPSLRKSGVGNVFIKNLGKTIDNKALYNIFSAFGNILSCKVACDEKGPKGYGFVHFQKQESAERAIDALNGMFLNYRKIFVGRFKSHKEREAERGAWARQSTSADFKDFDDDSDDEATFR
Strand	7-mer Z-score
UCAAAUA	0.162
GUUAGUC	-0.358
GUCAAAU	-0.206
AGCGGUU	0.0116
AUAGCGC	-0.0536
AUCUACA	-0.0899
GAGUCCC	-0.382
UGGCGCG	-0.15

Single results of other studies
CSNK2A2: Casein kinase II subunit alpha' (CSNK2A2, Homo sapiens, UniProt P19784)
Chain of UniProt P19784 (whole entry, looked up): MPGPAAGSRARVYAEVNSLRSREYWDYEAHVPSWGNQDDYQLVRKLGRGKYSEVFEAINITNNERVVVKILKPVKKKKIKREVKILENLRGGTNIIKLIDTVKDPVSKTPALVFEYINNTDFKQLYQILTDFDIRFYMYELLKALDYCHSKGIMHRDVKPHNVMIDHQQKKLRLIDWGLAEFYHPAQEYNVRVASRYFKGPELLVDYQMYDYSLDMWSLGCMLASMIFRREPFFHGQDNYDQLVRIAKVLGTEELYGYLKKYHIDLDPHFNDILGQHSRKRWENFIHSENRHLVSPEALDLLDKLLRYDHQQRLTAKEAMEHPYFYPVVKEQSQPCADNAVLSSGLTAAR
SMILES	target	assay	setting	how to read	quantity	result
O=C1NC(=O)c2c1c1c3ccccc3[nH]c1c1[nH]c3cc(Br)ccc3c21	CSNK2A2	enzyme activity, inhibitor	0.5 µM	reference: control	remaining activity	93.2%
O=C(O)[C@@H]1[C@@H](Cn2nnc3ccccc3c2=O)CC[C@H]1C(=O)c1ccc(OCCC2CCOCC2)cc1	PKMYT1 (Homo sapiens, UniProt Q99640)	cell-free assay, competition with immobilised ligand	1 µM		remaining binding	82%
COc1cccc(-c2cc(=O)c3ccccc3o2)c1N	CSNK2A2	enzyme activity, inhibitor	0.5 µM	reference: control	remaining activity	97.7%
CC(C)n1cnc2c(Nc3cccc(Cl)c3)nc(NCCO)nc21	CSNK2A2	enzyme activity, inhibitor	0.5 µM	reference: control	remaining activity	91.8%
